{"data": "Assay results gathered from unrelated publications", "note": "Protocols differ between the studies behind these lines."}
{"Structure (SMILES)": "COc1ccc(/C=C/c2ccc(-c3ccc(C)cn3)nc2)cc1", "test system": "acetonitrile", "conditions": "zinc complex", "emission maximum": "533 nm"}
{"Structure (SMILES)": "COc1cc(OC)cc(C2=C3C(C)=C(I)C(C)=[N+]3[B-](F)(F)n3c(/C=C/c4cccs4)c(I)c(C)c32)c1", "test system": "THF", "emission maximum": "610 nm"}
{"Structure (SMILES)": "Nc1nc(-n2nnc3c2CCC2C(CO)C2CC3)nc2c1ncn2C1OC(CO)C(O)C1O (mixture of isomers)", "test system": "DMSO", "emission maximum": "375 nm"}
{"Structure (SMILES)": "COC(=O)c1ccccc1-c1c2ccc(=[N+](C)C)cc-2oc2c1ccc1cccc(O)c12", "test system": "HCl 12.5 mM", "conditions": "pH 1.9, 10% DMSO", "emission maximum": "614 nm"}
{"Structure (SMILES)": "CCCCN1C(=O)c2cccc3c(NCCCN4CCOCC4)ccc(c23)C1=O", "test system": "aqueous medium", "conditions": "pH 6", "emission maximum": "548 nm"}
{"Structure (SMILES)": "COCCOCCOCCOc1ccc(/C=C/c2c(I)c(C)c3n2[B-](F)(F)[N+]2=C(C)C(I)=C(C)C2=C3c2cc(OC)cc(OC)c2)cc1", "test system": "dichloromethane", "emission maximum": "611 nm"}
{"Structure (SMILES)": "Nc1ncnc2c1nc(-n1nnc3c1CCC1C(CO)C1CC3)n2C1CC(O)C(CO)O1 (mixture of isomers)", "test system": "50 mM phosphate buffer", "conditions": "pH 7.0", "emission maximum": "402 nm"}
{"Structure (SMILES)": "CCn1cc(/C=C/c2ccc3ccccc3[n+]2CC)c2ccccc21", "test system": "DMSO", "conditions": "together with: excitation 488 nm", "emission maximum": "565 nm"}
{"Structure (SMILES)": "COc1cc(OC)cc(C2=C3C(C)=C(I)C(/C=C/c4cccs4)=[N+]3[B-](F)(F)n3c(/C=C/c4cccs4)c(I)c(C)c32)c1", "test system": "DMSO", "emission maximum": "692 nm"}
{"Structure (SMILES)": "COc1ccc2cc(-c3ccc(-c4ccc(C)cn4)nc3)oc2c1", "test system": "acetonitrile", "conditions": "zinc-free ligand", "emission maximum": "435 nm"}
{"Structure (SMILES)": "NCCC(=O)N1Cc2ccccc2-c2c(nnn2-c2nc3c(N)ncnc3n2C2OC(CO)C(O)C2O)-c2ccccc21 (mixture of isomers)", "test system": "methanol", "emission maximum": "440 nm"}
{"Structure (SMILES)": "COc1cc(OC)cc(C2=C3C(C)=C(I)C(C)=[N+]3[B-](F)(F)n3c(/C=C/c4c[nH]c5ccc([N+](=O)[O-])cc45)c(I)c(C)c32)c1", "test system": "DMSO", "emission maximum": "651 nm"}
{"Structure (SMILES)": "Cc1nc(N(C)C)ccc1N", "test system": "phosphate buffer with BSA", "conditions": "pH 8, 37 °C, 1% DMSO", "emission maximum": "432 nm"}
{"Structure (SMILES)": "COCCOCCOc1ccc([P+](Cc2ccc(C3=C4C(C)=CC(C)=[N+]4[B-](F)(F)n4c(C)cc(C)c43)cc2)(c2ccc(OCCOCCOC)cc2)c2ccc(OCCOCCOC)cc2)cc1", "test system": "PBS", "conditions": "10 µM, pH 7.4, 298 K, together with: excitation 497 nm", "emission maximum": "512 nm"}
{"Structure (SMILES)": "COc1cc(OC)cc(C2=C3C(C)=C(I)C(/C=C/c4c[nH]c5ccc([N+](=O)[O-])cc45)=[N+]3[B-](F)(F)n3c(/C=C/c4c[nH]c5ccc([N+](=O)[O-])cc45)c(I)c(C)c32)c1", "test system": "DMSO", "emission maximum": "748 nm"}
{"Structure (SMILES)": "CC1=CC(C)=[N+]2C1=C(CCCC(=O)NCCCCCC(=O)NCCCCCC(=O)NCCCC[C@H](NC(=O)N[C@@H](CCC(=O)O)C(=O)O)C(=O)O)c1c(C)cc(C)n1[B-]2(F)F", "test system": "acetonitrile/water", "emission maximum": "506 nm"}
{"Structure (SMILES)": "COc1cc(OC)cc(C2=C3C(C)=C(I)C(/C=C/c4c[nH]c5ccccc45)=[N+]3[B-](F)(F)n3c(/C=C/c4c[nH]c5ccccc45)c(I)c(C)c32)c1", "test system": "THF", "emission maximum": "748 nm"}
{"Structure (SMILES)": "COc1ccc2c(c1)c(CC(=O)OCCN1CCN(CCCN3c4ccccc4Sc4ccc(Cl)cc43)CC1)c(C)n2C(=O)c1ccc(Cl)cc1", "test": "fluorescence spectroscopy", "conditions": "pH 7", "emission maximum": "505 nm"}
{"note": "For quick reference, copied from above:"}
{"Structure (SMILES)": "COCCOCCOCCOc1ccc(/C=C/c2c(I)c(C)c3n2[B-](F)(F)[N+]2=C(C)C(I)=C(C)C2=C3c2cc(OC)cc(OC)c2)cc1", "test system": "dichloromethane", "emission maximum": "611 nm"}
